Measurements of several laboratories.
Numbered parts are unrelated; each lists some results of a single study. Values joined by “and” are separate records of one study, mostly repeats; a detail may differ.
Sequence of UniProt P61075 (whole entry, looked up): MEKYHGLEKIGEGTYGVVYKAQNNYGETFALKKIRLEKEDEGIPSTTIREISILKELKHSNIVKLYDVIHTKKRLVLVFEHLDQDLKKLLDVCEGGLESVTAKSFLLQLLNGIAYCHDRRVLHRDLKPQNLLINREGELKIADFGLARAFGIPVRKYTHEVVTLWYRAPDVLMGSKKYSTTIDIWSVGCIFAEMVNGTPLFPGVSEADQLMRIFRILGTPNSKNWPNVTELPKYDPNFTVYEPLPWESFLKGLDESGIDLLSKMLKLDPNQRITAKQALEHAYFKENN
Sequence of UniProt P11229 (whole entry, looked up): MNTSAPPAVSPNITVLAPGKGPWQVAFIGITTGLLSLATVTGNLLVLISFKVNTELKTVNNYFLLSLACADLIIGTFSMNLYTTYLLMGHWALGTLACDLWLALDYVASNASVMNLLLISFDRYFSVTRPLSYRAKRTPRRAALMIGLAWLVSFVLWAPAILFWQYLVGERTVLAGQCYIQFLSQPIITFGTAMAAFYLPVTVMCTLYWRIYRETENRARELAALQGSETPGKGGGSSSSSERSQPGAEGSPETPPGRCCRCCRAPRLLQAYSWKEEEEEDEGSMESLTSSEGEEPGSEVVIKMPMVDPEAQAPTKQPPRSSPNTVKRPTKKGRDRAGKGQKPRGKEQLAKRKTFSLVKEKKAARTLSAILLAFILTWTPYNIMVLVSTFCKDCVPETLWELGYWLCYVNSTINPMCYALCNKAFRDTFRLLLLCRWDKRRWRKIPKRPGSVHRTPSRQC
Sequence of UniProt P62344 (whole entry, looked up): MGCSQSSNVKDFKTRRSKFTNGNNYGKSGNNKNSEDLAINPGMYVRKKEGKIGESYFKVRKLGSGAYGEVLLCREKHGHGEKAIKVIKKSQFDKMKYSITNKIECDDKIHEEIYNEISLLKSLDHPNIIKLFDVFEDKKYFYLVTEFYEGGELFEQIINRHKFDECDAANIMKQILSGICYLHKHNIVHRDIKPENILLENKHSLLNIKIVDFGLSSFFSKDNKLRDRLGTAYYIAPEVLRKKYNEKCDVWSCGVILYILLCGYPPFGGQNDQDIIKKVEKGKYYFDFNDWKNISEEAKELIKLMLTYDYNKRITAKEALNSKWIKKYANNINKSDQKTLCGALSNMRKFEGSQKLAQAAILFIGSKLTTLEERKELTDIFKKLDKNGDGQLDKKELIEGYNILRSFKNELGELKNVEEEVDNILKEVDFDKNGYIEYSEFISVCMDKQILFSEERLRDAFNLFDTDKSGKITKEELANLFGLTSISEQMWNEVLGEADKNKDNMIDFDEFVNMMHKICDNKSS
Sequence of UniProt P34969 (whole entry, looked up): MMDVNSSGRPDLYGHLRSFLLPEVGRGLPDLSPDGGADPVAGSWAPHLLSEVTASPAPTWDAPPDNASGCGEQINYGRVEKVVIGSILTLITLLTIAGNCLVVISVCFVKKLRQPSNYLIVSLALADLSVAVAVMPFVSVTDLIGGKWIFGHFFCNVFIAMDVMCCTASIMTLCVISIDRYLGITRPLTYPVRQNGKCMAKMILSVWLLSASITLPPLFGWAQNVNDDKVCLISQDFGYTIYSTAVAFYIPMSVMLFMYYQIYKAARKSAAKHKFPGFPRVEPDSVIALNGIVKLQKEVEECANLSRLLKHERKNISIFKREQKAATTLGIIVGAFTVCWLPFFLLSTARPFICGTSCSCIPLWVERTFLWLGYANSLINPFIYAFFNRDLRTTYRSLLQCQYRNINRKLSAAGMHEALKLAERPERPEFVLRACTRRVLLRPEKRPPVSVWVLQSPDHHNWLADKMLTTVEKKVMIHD
Sequence of UniProt Q9UQM7 (whole entry, looked up): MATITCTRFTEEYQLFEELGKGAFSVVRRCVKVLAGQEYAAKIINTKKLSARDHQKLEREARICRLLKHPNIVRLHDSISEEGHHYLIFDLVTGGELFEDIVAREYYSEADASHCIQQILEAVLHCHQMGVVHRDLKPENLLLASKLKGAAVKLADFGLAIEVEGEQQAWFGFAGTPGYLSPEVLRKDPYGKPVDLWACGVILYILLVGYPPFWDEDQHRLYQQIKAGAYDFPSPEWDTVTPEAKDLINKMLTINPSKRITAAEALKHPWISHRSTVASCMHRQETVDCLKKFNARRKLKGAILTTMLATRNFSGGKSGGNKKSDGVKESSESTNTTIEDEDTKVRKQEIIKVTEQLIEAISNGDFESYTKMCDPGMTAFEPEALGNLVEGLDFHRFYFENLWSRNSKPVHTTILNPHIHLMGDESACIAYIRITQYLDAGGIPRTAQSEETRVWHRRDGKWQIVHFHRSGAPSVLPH
Sequence of UniProt P60842 (whole entry, looked up): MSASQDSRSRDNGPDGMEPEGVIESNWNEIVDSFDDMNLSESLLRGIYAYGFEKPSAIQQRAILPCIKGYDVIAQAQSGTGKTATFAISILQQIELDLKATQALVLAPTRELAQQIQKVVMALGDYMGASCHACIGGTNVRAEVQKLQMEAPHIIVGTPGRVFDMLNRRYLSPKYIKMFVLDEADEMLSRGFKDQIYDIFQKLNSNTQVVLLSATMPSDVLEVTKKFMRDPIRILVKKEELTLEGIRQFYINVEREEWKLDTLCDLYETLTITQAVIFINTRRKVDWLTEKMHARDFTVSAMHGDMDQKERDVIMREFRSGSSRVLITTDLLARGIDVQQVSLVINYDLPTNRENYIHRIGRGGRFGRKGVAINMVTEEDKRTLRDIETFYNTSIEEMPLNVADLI

Series 1
Organism: Sarcocystis neurona
Read-out: parasite growth
Concentration: 10 µM
Time: 96 h
Setting: first screen
SMILES	inhibition [%]
NC(=NCc1ccc(Cl)cc1)SCCCc1cnc[nH]1	20.8
C[C@]12CC[C@H](O)CC1=CC[C@@H]1[C@@H]2CC[C@]2(C)C(=O)CC[C@@H]12	0.8
CC[C@@H](C(N)=O)N1CCCC1=O	-5.3
CC(C)CC(N(C)C)C1(c2ccc(Cl)cc2)CCC1 (stereo not shown)	0.134
CC(O)(CS(=O)(=O)c1ccc(F)cc1)C(=O)Nc1ccc(C#N)c(C(F)(F)F)c1 (stereo not shown)	-4.6
C=CCN1CC[C@]23c4c5ccc(O)c4O[C@H]2C(=O)CC[C@@]3(O)[C@H]1C5	-12.3

Series 2
Target: Serine/threonine-protein kinase 33 (STK33, Homo sapiens, UniProt Q9BYT3)
Sequence of UniProt Q9BYT3 (whole entry, looked up): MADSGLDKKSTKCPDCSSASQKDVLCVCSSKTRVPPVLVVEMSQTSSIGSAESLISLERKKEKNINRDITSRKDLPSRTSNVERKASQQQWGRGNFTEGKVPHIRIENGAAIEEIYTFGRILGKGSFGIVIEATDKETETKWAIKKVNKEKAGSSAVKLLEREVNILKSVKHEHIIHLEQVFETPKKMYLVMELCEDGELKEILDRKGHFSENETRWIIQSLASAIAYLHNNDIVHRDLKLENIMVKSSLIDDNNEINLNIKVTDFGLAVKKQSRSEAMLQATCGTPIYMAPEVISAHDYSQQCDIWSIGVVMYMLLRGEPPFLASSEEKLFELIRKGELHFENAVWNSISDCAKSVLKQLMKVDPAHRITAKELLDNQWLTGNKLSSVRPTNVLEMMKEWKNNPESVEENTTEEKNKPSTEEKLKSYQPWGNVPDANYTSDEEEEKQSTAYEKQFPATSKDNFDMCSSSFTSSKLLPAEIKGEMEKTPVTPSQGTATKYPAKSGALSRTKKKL
Read-out: enzyme activity
Action: inhibitor
Method: radiometric
Concentration: 0.5 µM
SMILES	remaining activity [%]
O=C1Cc2c([nH]c3ccc([N+](=O)[O-])cc23)-c2ccccc2N1	79.9
Oc1ccc(Nc2nc(-c3ccc(Cl)cc3)cs2)cc1	97.5
Cc1cncc2cccc(S(=O)(=O)N3CCCN(C(=O)CN)C[C@@H]3C)c12	100
O=C1NC(=O)C(c2c[nH]c3ccccc23)=C1c1c[nH]c2ccccc12	97.7
COc1ccc(S(=O)(=O)N(CCO)c2ccccc2CN(C)CC=Cc2ccc(Cl)cc2)cc1	97.3
CC(C)(C)c1cc(C=C(C#N)C#N)cc(Br)c1O	91.1
Nc1nc(Nc2ccc(S(N)(=O)=O)cc2)nn1C(=O)c1c(F)cccc1F	74.4
O=S(=O)(NCCNC/C=C/c1ccc(Br)cc1)c1cccc2cnccc12	79.5
Cc1ccc(NC2=CC(=O)c3sc(C)nc3C2=O)cc1	96.6
CC#CC(=O)Nc1cc2c(Nc3ccc(F)c(Cl)c3)ncnc2cn1	88.5
Nc1nccc(-c2c(-c3ccc(F)cc3)ncn2C2CCNCC2)n1	98.6
Nc1ncnc2c1cnn2-c1ccccc1	96.1
Cc1cc(Nc2nc(-c3ccccc3)nc3ccccc23)n[nH]1	44.7
CCCC(=O)Oc1ccc2[nH]c(C(=O)c3cc4ccccc4[nH]3)cc2c1	92.9
CSc1nc(-c2ccnc(N[C@@H](C)c3ccccc3)c2)c(-c2ccc(F)cc2)[nH]1 (racemic)	107
N#CC(=C(N)Sc1ccc(N)cc1)c1ccccc1C(F)(F)F	92.2
CC[n+]1c(/C=C/N(C)c2ccccc2)n(-c2ccccc2)c2ccc(-c3nc4ccccc4s3)cc21	89.4
CC(C)(C)n1nc(Cc2cccc3ccccc23)c2c(N)ncnc21	99.7
Fc1ccc(-c2nc3n(c2-c2ccncc2)CCS3)cc1	96.5
NC(=O)c1ccc(N(C(N)=O)c2c(F)cccc2F)nc1-c1ccc(F)cc1F	94
CCc1[nH]c(-c2ccc(OC)cc2)nc1-c1ccncc1	101
CC(=O)c1ccc(N2CCOCC2)cc1O	109
COc1cc(Nc2c(C#N)cnc3cc(OCCCN4CCN(C)CC4)c(OC)cc23)c(Cl)cc1Cl	63.5

Series 3
Cell line: mouse MPNST tumor cells
Method: high-content nuclear imaging
Item: cell number
Concentration: 10 µM
Time: 12 h
Setting: mean of 2 replicates
Relative to: plate mean
Reading: higher = more cells
SMILES	nuclei count
CCCCCOc1c(OC)ccc2cc(C(=O)NCc3ccc4c(c3)OCO4)c(=O)[nH]c12	0.743 z-score
O=C(O)C(=O)c1cn(Cc2ccccc2)c2ccc(-c3ccc(OC(F)(F)F)cc3)cc12	1.45 z-score
CC(Cc1ccc(O)cc1)NCC(O)c1cc(O)cc(O)c1 (stereo not shown)	0.927 z-score
CC(O)(CS(=O)(=O)c1ccc(F)cc1)C(=O)Nc1ccc(C#N)c(C(F)(F)F)c1 (stereo not shown)	1.76 z-score and 3.36 z-score and 1.92 z-score
CNCC(O)c1ccc(O)cc1 (racemic)	-0.304 z-score
CN(C)C(=O)Oc1cccc([N+](C)(C)C)c1	1.24 z-score
CC(C)c1cccc(C(C)C)c1O	2.18 z-score

Series 4
Organism: Plasmodium berghei
Cell line: Huh-7
Strain: liver stage
Concentration: 10 µM
Time: 24 h
Relative to: control
Compound	parasite load
CC[N+](C)(C)c1cccc(O)c1	113%
COc1cc2c3cc1Oc1cc(ccc1O)C[C@@H]1c4c(cc(OC)c(O)c4Oc4ccc(cc4)C[C@@H]3N(C)CC2)CC[N+]1(C)C	79.2%
C=C[C@H]1CN2CC[C@H]1C[C@H]2[C@H](OC(=O)OCC)c1ccnc2ccc(OC)cc12	109%
C[C@@H]1C[C@H]2[C@@H]3C[C@H](F)C4=CC(=O)C=C[C@]4(C)[C@@]3(F)[C@@H](O)C[C@]2(C)[C@@]1(O)C(=O)COC(=O)C(C)(C)C	110%
O=c1[nH]c2ccccc2n1CCCN1CCC(n2c(=O)[nH]c3cc(Cl)ccc32)CC1	61.4%
C=CCN1CC[C@]23c4c5ccc(O)c4O[C@H]2C(=O)CC[C@@]3(O)[C@H]1C5	85.7%
COc1ccc2c3c1O[C@H]1C[C@@H](O)C=C[C@@]31CCN(C)C2	91.3%
Oc1ccc2c3c1O[C@H]1[C@@H](O)CC[C@@]4(O)[C@@H](C2)N(CC2CCC2)CC[C@]314	112%

Further values, each from its own experiment
BRD4 BD1: Bromodomain-containing protein 4, BD1 (BRD4, Homo sapiens, UniProt O60885)
SMILES	target	assay	conditions	endpoint	value
CCC(=N\O)/C(C)=C/c1ccc(F)cc1	Calcium-dependent protein kinase 1 (CDPK1, Plasmodium falciparum, UniProt P62344)	cell-free assay, competition with immobilised ligand	1 µM	remaining binding	87%
CC1(C)COC(=O)[C@@H]1O	Calcium/calmodulin-dependent protein kinase type II subunit alpha (CAMK2A, Homo sapiens, UniProt Q9UQM7)	enzyme activity, inhibitor	10 µM	inhibition	40%
CNC(=O)c1cc(C(=O)NC2CC2)cn(Cc2ccccc2)c1=O	5-hydroxytryptamine receptor 7 (HTR7, Homo sapiens, UniProt P34969)	binding, radioligand binding	10 µM	inhibition	13.6%
COc1ccc([C@@]23Oc4cc(OC)cc(OC)c4[C@]2(O)[C@H](O)[C@H](C(=O)N(C)OC)[C@H]3c2ccccc2)cc1	Eukaryotic initiation factor 4A-I (EIF4A1, Homo sapiens, UniProt P60842)	RNA clamping, fluorescence polarization	concentration not given, together with: FAM-labelled poly r(AG)8 RNA	fluorescence polarization change	16.1 mP
c1ccc(N2CCN(Cc3nc4ccccc4[nH]3)CC2)nc1	Cyclin-dependent kinase 2 homolog (CRK2, Plasmodium falciparum, UniProt P61075)	cell-free assay, competition with immobilised ligand	1 µM	remaining binding	100%
Cc1cccc(N2C(=O)NC(=O)C(=CNc3ccc4c(c3)OCO4)C2=O)c1	BRD4 BD1	acetyl-histone H4 peptide binding, AlphaScreen displacement	50 µM	inhibition	14.7%
COc1ccc2c(c1)O[C@H](c1ccc(OC)c(OC)c1)C[C@@H]2NC(=O)C1(c2ccc3c(c2)OC(F)(F)O3)CC1	Muscarinic acetylcholine receptor M1 (CHRM1, Homo sapiens, UniProt P11229)	cell-free assay	10 µM	inhibition	-12.4%
CN1C(=O)C(=CNc2ccc(Cl)cc2)C(=O)NC1=S	BRD4 BD1	acetyl-histone H4 peptide binding, AlphaScreen displacement	50 µM	inhibition	13.6%

Some of these lines once more (series 2):
SMILES	remaining activity [%]
CCCC(=O)Oc1ccc2[nH]c(C(=O)c3cc4ccccc4[nH]3)cc2c1	92.9
O=C1Cc2c([nH]c3ccc([N+](=O)[O-])cc23)-c2ccccc2N1	79.9
CC#CC(=O)Nc1cc2c(Nc3ccc(F)c(Cl)c3)ncnc2cn1	88.5
COc1ccc(S(=O)(=O)N(CCO)c2ccccc2CN(C)CC=Cc2ccc(Cl)cc2)cc1	97.3
Fc1ccc(-c2nc3n(c2-c2ccncc2)CCS3)cc1	96.5
